Experimental data collected from several papers.
Numbered parts are unrelated; each lists some results of a single study. Positions count from the first letter of the parent shown.

Block 1
Target: CRIPT, C-terminal peptide
Method: DHFR complementation, deep sequencing
Matrix: yeast
Notes: single substitutions, model-inferred values
Reference: wild type
Direction: higher = weaker binding
Starting sequence: ERBIN, PDZ domain 1 (human); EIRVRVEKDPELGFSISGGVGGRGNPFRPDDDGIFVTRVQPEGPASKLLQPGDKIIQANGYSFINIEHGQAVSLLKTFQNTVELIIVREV; partner TKNYKQTSV
`A71Y` — result for “binding free energy change”: 1.13 kcal/mol.
For `R23I`, “binding free energy change” read 0.375 kcal/mol.
Under “binding free energy change”, `G60C` is recorded as 0.113 kcal/mol.
`L49E` — result for “binding free energy change”: 1.49 kcal/mol.
`V4R`: “binding free energy change” 0.289 kcal/mol.
For `I34R`, “binding free energy change” read 0.229 kcal/mol.
For `S15H`, “binding free energy change” read 0.535 kcal/mol.
Under “binding free energy change”, `G21S` is recorded as 0.286 kcal/mol.

Block 2
Target: MAFG, bZIP domain (human)
Method: DHFR protein complementation
Matrix: yeast
Notes: single substitutions, most at no-binding floor
Reference: wild-type JUN-FOS pair
Direction: higher = stronger binding
Starting sequence: JUN, bZIP domain (human); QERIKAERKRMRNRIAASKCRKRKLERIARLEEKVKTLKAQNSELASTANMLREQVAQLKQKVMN; partner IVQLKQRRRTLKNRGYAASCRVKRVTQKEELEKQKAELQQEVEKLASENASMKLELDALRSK
`V35N` gave a binding fitness of -1.52 natural log.
With `S47H` the binding fitness was -1.29 natural log.
With `E32T` the binding fitness was -1.46 natural log.
The binding fitness of `N42A` is reported as -1.19 natural log.
With `E54T` the binding fitness was -1.48 natural log.
`L45W` gave a binding fitness of -1.55 natural log.
With `E54W` the binding fitness was -1.49 natural log.
`I28F` gave a binding fitness of -1.49 natural log.

Block 3
Target: ABI1, truncated, D143A, DHFR fusion (Arabidopsis thaliana, UniProt P49597)
Method: DHFR PCA, dose-response
Matrix: yeast
Notes: Hill fit, not affinity
Added: (+)-ABA, dose series
Direction: lower = more sensitive
Starting sequence: PYL1, truncated, DHFR fusion (Arabidopsis thaliana, UniProt Q8VZS8); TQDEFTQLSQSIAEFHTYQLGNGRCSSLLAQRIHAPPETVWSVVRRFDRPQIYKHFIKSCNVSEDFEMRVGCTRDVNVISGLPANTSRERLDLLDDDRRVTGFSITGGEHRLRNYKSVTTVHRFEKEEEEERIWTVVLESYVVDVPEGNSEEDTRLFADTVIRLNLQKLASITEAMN
For `R24Q`, the ABA EC50 was 2.69 µM.
With `G108C` the ABA EC50 was 1490 µM.
For `W134Y`, the ABA EC50 was 2.98 µM.
With `C25V` the ABA EC50 was 7.85 µM.
`N85C` gave an ABA EC50 of 11.7 µM.
For `S104W`, the ABA EC50 was 1510 µM.
`D92A` gave an ABA EC50 of 109 µM.
`H110W` gave an ABA EC50 of 3.39 µM.

Other studies, line by line
Starting sequence: PafA, mature enzyme, eGFP fusion (Elizabethkingia meningoseptica, UniProt Q9KJX5); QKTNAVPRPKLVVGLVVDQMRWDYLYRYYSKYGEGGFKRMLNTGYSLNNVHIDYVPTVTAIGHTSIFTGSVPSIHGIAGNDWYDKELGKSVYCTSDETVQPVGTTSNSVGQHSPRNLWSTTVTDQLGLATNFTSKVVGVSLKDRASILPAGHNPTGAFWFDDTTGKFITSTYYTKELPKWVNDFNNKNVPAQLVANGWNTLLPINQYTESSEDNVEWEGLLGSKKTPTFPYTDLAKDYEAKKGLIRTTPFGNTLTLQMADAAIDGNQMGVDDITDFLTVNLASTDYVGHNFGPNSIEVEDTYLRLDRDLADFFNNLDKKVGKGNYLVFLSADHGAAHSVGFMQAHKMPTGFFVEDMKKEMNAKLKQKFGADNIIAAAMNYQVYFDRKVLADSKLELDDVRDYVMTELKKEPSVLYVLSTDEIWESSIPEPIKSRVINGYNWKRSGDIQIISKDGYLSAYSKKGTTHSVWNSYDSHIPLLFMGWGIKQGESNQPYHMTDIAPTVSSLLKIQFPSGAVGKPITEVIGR
`R246G`: “oxyanion analog dissociation constant” 1.25 µM (vanadate, free oxyanion; microfluidic competitive inhibition; in vitro, cell-free expressed; not given, derived from inhibition constants, unchanged parent 676 nM; lower = stronger binding).

For quick reference, copied from above (block 2):
The binding fitness of `N42A` is reported as -1.19 natural log.
With `E54T` the binding fitness was -1.48 natural log.
`L45W` gave a binding fitness of -1.55 natural log.
With `E54W` the binding fitness was -1.49 natural log.
